Published values of several laboratories.
Parts stem from different laboratories: compare values within a part only.

Sample 1
Target: Sal-like protein 4, full length isoform A (SALL4, Homo sapiens, UniProt Q9UJQ4, residues 1-1053)
Sequence of UniProt Q9UJQ4 (whole entry, looked up): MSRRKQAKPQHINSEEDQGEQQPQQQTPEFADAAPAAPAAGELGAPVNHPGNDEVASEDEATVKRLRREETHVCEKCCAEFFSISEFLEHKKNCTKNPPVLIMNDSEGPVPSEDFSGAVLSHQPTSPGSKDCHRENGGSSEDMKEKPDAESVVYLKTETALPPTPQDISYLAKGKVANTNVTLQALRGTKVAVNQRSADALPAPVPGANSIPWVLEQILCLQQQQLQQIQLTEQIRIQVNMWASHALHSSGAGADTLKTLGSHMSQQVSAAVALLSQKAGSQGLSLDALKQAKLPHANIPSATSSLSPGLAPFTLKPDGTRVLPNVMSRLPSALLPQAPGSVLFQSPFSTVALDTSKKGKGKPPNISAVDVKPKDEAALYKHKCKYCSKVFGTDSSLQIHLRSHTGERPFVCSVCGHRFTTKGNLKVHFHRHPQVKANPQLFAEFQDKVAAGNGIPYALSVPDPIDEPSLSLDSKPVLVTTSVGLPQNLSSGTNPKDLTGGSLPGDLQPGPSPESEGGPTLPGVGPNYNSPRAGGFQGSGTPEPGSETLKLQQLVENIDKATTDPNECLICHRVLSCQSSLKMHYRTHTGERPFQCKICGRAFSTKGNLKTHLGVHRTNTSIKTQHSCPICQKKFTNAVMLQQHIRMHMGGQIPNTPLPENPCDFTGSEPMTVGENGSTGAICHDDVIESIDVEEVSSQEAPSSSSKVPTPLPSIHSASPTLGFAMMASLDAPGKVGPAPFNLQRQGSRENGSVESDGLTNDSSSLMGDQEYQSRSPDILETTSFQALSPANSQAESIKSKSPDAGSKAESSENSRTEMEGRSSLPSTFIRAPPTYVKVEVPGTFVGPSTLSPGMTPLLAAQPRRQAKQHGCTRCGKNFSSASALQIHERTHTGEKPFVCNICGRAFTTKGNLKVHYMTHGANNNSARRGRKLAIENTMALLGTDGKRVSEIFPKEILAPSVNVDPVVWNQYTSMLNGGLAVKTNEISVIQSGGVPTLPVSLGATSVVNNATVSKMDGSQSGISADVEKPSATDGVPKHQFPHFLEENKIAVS
Method: universal PBM
Molecule type: double-stranded DNA, one strand shown
Matrix: in vitro
Concentration: 600 nM
Notes: 8-mer, flanks averaged, mean of replicates
Direction: higher = stronger binding
Oligonucleotide	E-score
CCCTCGCA	-0.143
GTGAACAA	0.0157
ACCTCGTC	-0.0654
CGGGAACG	-0.287
CCAAGCTA	-0.164
GGGAGGGA	-0.115
ACATCATC	0.168
CATCCAAC	0.0063
AATGCGAT	0.166
AACTTTGC	-0.127
CGTCCATC	-0.136
ATATTGCC	0.302
GGTCGCAA	-0.0701
CGTTTTAC	0.0745
CGCGTGTA	-0.0457
CGTATCAA	0.141

Sample 2
Target: RING finger protein unkempt homolog, zinc fingers 1-6, GST-SBP tag (UNK, Homo sapiens, UniProt Q9C0B0, residues 30-357)
Method: RNA Bind-n-Seq
Molecule type: RNA
Matrix: in vitro
Concentration: not given
Notes: RNA with constant flanks, human-mouse chimeric sites, ends assumed
Baseline: input RNA pool
Direction: higher = stronger binding
All sequences stand within: GGGAGUUCUACAGUCCGACGAUC … CAACAGAGGAUUGAGCAUCA
Construct (chain): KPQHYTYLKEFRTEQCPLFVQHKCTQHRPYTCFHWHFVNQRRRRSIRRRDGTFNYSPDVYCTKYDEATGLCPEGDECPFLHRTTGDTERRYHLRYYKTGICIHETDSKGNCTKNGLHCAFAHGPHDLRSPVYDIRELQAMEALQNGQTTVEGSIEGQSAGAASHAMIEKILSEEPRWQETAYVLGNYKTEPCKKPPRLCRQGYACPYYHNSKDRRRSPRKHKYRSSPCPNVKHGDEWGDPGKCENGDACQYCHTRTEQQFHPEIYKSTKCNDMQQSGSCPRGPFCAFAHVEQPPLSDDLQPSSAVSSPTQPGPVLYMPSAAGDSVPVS
Oligonucleotide	bound/input enrichment [ratio]
CAGUCCCCGUGUCCCAGUGCAGGACGAUGUGAACAAAAACUCAAAGCGGACCCUCUACUGUAGUUGAUGAUUCUCGAAAUGUGCUAUUGUUUUUAAACUUUUUUUUUUUUUUUUUAAAGA	1.09
UACUCAACUUUCUUGCCACAUUUUGAAUUCCAAGACAUUAUUCCUCCAGAUGACUUCCUAACGAGUGAUGAAGAGCAAGAUUCCGUUUUAUUUGGAACUAUGAGAGGACAAGUUGUUGGA	0.189
UGUGCCCCACAAGAUCCUACCUGAGUGGCAGCUGAAGUUGACUCCCUCUCCUUGCCUGAACCCCCCCCCACUGCCCCCCCAUCCCCCAGUGUCGGCUGAGAUGUUGCCUCUGCACGGUUC	0.661
GUUGCCAGGUUCCGGUGCCGUUGGGCUCGGUUCUCUCCUGAGCUACGUGUCUCUACGUUUUAGGUGUGCCAUCCAACAAACAUGGAUCAGGUAAUGCAGUUUGUGGAGCCCAGCCGGCAG	0.108
GCUGAAAAUGAAGAAGAGGCAGCUGAUGUCUGGUACAACCUGGGGCACAUAGCUGUGGGAAUAGGAGAUACAAACUUGGCCCACCAAUGCUUCAGGCUGGCUCUGGUCCACAACAACCAC	0.293
GCUCUUGGGAAUGUAAUCAGCGCCUUGGGGGACAAGAGCAAGAGAGCCACACAUGUCCCCUAUAGAGACUCUAAGCUGACAAGACUCUUGCAGGAUUCCCUUGGGGGUAACAGCCAAACC	0.122
GGAUUCCGCUUCCGGUUCCGUUGGGCUCGGUUCUCUCAGUGCUACGUUGUCUCUACGCUCUCAAUCCGCCAUCCAACAAACAUGGAUCAGGUAAUGCAGUUUGUGGAGCCCAGCCGGCAG	0.075
GAUCAUGAACCACCAUCAGAAAUGAAGAUGAGAUUACCCAAGACGAGCAAAACAGCUGCGCUACAGAAAAGUAAACUUUAACCUUGCGAGUUCCUUAAUGAAGAUACAAGUUAAGAGAGC	0.181
GAAACAUUUAAAUUUAAAGAAGCUGUUGUUCUAGGAAGUACGGACUUUCUAGAAGAUGAUAUAGAGAAAAUUGUAGAAGAACUGGGGAAAGAAUACAAGGGCAACGCUUAUCAUUUAAUG	2.23
CUGGCACUCUAUCAGAUAGAUUACUUUUUUAAUGUAGAUGUAAUUUUAAAAAUGAAUGGCUACUUUACGUGAUAGAUUAGGGUUUUACUAUAUAUGUGUACAUAUGUAUAUAUAUAUAUA	9.33
AAUUUCCUGUCAUACUUUGUAGCAAGACACAUCAGACUUACAGAGCACCUGGCCACAUUCUAGGUUUGUGUUAUUUCUCAGCUAUGGAUAUGAUCAAAGAGUGAAAAUGCUUAACUAAUG	0.189

Sample 3
Target: Phosphate system positive regulatory protein PHO4, full length, GST-tagged (PHO4, Saccharomyces cerevisiae, UniProt P07270, residues 1-312)
Method: competition protein-binding microarray
Molecule type: double-stranded DNA, one strand shown
Matrix: in vitro
Concentration: 2 µM
Notes: whole 60-bp probe, lowest competitor level
Added: Cbf1 competitor, 0.05 µM
Direction: higher = stronger binding
All sequences stand within: … GTCTTGATTCGCTTGACGCTGCTG
Residues (chain): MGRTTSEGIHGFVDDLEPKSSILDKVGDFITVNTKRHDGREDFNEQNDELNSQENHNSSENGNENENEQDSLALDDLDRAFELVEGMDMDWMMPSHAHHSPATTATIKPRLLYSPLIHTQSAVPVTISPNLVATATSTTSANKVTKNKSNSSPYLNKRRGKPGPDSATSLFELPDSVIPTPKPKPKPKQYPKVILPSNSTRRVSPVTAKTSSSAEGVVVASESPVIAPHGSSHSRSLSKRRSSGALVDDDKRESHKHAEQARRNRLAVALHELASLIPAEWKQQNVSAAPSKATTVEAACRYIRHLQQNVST
Oligonucleotide	fluorescence intensity [a.u.]
GATCAGTTTTCCACATCCGTGATGGGGCGCAAATTA	4480
GACAAAAAAGCAGGGCACATGTCAAACTCTTGGAAA	13200
GTGAGCGAAGAGGTTAATGATATCTTCGATTATTTG	3670
TCCATCTTTTCTAGCACCGTGGTAGCCATATGGAGA	7460
TGACATTGCTCGAGTCACGTTCAGAAAACGAGAAGA	9430
AAAGCGGTAATTTGCCGGGTGGGTGCAGATATCTAT	4770
CTTCTGTAAATTTTTCACGTGCGGTGAAGCGCCCCG	16200
AGAATCAGGCATTCGCGTGTGACGGGCGTCATTCAT	6410
CTGCTTTCGTTTCGCCAGGTGATTCTGTTGCCATTA	4410
CTAACGAAGGTTTGCTGTGTGGGTGACAAGCCAAGT	5080
CTTCTGTAAATTTTTCACGTGAGATGACGCGCCCCG	9700
TTCTCTTCCGATATGACCGTGCTTTTAGCTGTTAGC	7310
AAAAGTTTCCCTTCTCACGTGTCCATAAAGCATCAA	14000
CTTCTGTAAATTTGCAAGGTGGGTGGACGCGCCCCG	3800
AAGCCACAAACTTTTTGCATGACAGTCATTGTGTAC	4750
AAATTACTAAGTTGCCTCGTGGGTGACGCCGTATGA	11500
AAGGCCGAGAGGAAGCGCGTGATGGAAGCCCGATCT	6690
ATACCAAATGTCCAGCCCGTGACGGTGCAGCAGGGT	8950
CTGTGGGAGAGCCAGTTCGTGCCAGCCGTTATTTCT	7050
TGCGCAACAACTTGGACCGTGGGTGTATGTCTAGAA	8690
TGCGCAACAACTTCACACGTGTTTTTATGTCTAGAA	18100
ATATTAAAAAACCATCACGTGGTGAAAAAAAAAATT	19800

Sample 4
Target: Histone acetyltransferase KAT6A, winged helix 2, GST fusion (KAT6A, Homo sapiens, UniProt Q92794, residues 85-181)
Method: protein binding microarray
Molecule type: double-stranded DNA, one strand shown
Matrix: in vitro
Concentration: not given
Notes: 8-mer, flanks averaged, mean of 2 arrays, mostly near background
Baseline: not given
Direction: higher = stronger binding
Target sequence (chain): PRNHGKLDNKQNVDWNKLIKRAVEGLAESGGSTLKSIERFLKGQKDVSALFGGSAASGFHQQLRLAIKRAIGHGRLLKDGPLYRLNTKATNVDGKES
Oligonucleotide	E-score
AGAATTTC	0.00594
CAAGCCTA	0.118
AACTTGTC	-0.107
AGGATTAA	-0.0462
AGAAATTG	0.0685
AGGGGTCC	-0.187
AAAATCTT	-0.00549
CTCAACGA	-0.01
ACATACGG	-0.166
AGAGCCAA	0.0405
CCATAGCC	-0.119
AATTGAAT	-0.0499
TCTCTCCA	-0.0703
ATTCAGAA	0.141
GGCCAGAC	0.0662
ACGTAACA	-0.196
GATTCCCA	-0.065
GGATTGGA	0.0488
CCAGTCGC	-0.0923
GAAGTCCA	0.00189
AGCAGTCA	-0.0095
CAGTCTGG	-0.0208
AACCCCAG	-0.0725
AGGGCCCT	-0.11
ACGTGAGG	-0.0733

Excerpt of the above (sample 3):
Oligonucleotide	fluorescence intensity [a.u.]
ATACCAAATGTCCAGCCCGTGACGGTGCAGCAGGGT	8950
CTGCTTTCGTTTCGCCAGGTGATTCTGTTGCCATTA	4410
TCCATCTTTTCTAGCACCGTGGTAGCCATATGGAGA	7460
AAGCCACAAACTTTTTGCATGACAGTCATTGTGTAC	4750
ATATTAAAAAACCATCACGTGGTGAAAAAAAAAATT	19800
CTTCTGTAAATTTTTCACGTGCGGTGAAGCGCCCCG	16200
TGCGCAACAACTTGGACCGTGGGTGTATGTCTAGAA	8690
AAAAGTTTCCCTTCTCACGTGTCCATAAAGCATCAA	14000
AAATTACTAAGTTGCCTCGTGGGTGACGCCGTATGA	11500
AAGGCCGAGAGGAAGCGCGTGATGGAAGCCCGATCT	6690
